Measurements from different studies.
Each line is one published result; not all experiments were run side by side. ± marks the error that the study gave.

SMILES	test	system	conditions	Cmax
O=C(O)C[C@H](O)C[C@H](O)/C=C/c1c(C2CC2)nc2ccccc2c1-c1ccc(F)cc1		OATP1B1/1B3 humanized mouse, plasma	oral, 5 mg/kg	218 nM
Nc1ccn([C@@H]2O[C@H](CO)[C@@H](O)C2(F)F)c(=O)n1	HPLC-UV	human, plasma	intravenous, 800 mg/m^2, median, after paricalcitol	11600 ng/mL
Cc1cc(OCCOCCC(F)(F)P(=O)(O)O)ccc1CCc1cnc2c(N)nc3cc(CCC(=O)O)ccc3c2c1		human, serum	intratumoral, 200 µg every 2 weeks, cycle 2 day 15	2.34 ng/mL
Cc1nc2ccc(F)cc2n1-c1nc(N)c(F)c(Nc2ccc(C(F)(F)F)cc2)n1		human patients, plasma	oral, 200 mg twice weekly, cycles 1 and 2 pooled	1260 ng/mL
Cc1ncc(CO)c(C(=O)O)c1O		human males, Hispanic/Latino, plasma	concentration not given, endogenous baseline level	3.3 ± 0.4 ng/mL
CC(C)(C(=O)N1CCOc2c(C#N)cncc2C1)C(F)F		humans, both sexes, fasted, plasma	oral, 20 mg single dose, geometric mean	241 ng/mL
Cc1cn(C(=O)c2c(-c3c(Cl)cc(Cl)cc3Cl)noc2C(C)(C)F)c2cccc(/C=C/C(=O)O)c12		human patients	1400 mg bid, cycle 1 day 1	34600 ng/mL
COc1ccc2nc([S@@+]([O-])Cc3ncc(C)c(OC)c3C)[nH]c2c1		human, dried blood spots	oral, 10 mg omeprazole, with: fluvoxamine	208 ng/mL
Cn1cncc1[C@@](N)(c1ccc(Cl)cc1)c1ccc2c(c1)c(-c1cccc(Cl)c1)cc(=O)n2C		healthy human, plasma	oral, 50 mg	104 ng/mL
C[C@H](CCC(=O)NCC(=O)O)[C@H]1CC[C@H]2[C@@H]3CC[C@@H]4C[C@H](OS(=O)(=O)O)CC[C@]4(C)[C@H]3CC[C@]12C		human, plasma	concentration not given, endogenous control diurnal	1550 ± 350 nM
COc1ccnc(C[S+]([O-])c2nc3ccc(OC(F)F)cc3[nH]2)c1OC (stereo not drawn)		human, plasma	oral, dose not given, median	3400 ng/mL
O=C(O)CCCCCCCCCCCCC(=O)O		human, plasma	concentration not given, endogenous baseline diurnal	146 ± 29 nM
COC(=O)c1ccc2c(c1)NC(=O)/C2=C(\Nc1ccc(N(C)C(=O)CN2CCN(C)CC2)cc1)c1ccccc1		healthy human	oral, 150 mg single, alone	19.8 ng/mL
CC[C@H](C)[C@H](NC(=O)[C@H](Cc1ccccc1)NC(=O)[C@H](CCC(=O)O)NC(=O)[C@H](CCCCNC(=O)COCCOCCNC(=O)COCCOCCNC(=O)CC[C@H](NC(=O)CCCCCCCCCCCCCCCCC(=O)O)C(=O)O)NC(=O)[C@H](C)NC(=O)[C@H](C)NC(=O)[C@H](CCC(N)=O)NC(=O)CNC(=O)[C@H](CCC(=O)O)NC(=O)[C@H](CC(C)C)NC(=O)[C@H](Cc1ccc(O)cc1)NC(=O)[C@H](CO)NC(=O)[C@H](CO)NC(=O)[C@@H](NC(=O)[C@H](CC(=O)O)NC(=O)[C@H](CO)NC(=O)[C@@H](NC(=O)[C@H](Cc1ccccc1)NC(=O)[C@@H](NC(=O)CNC(=O)[C@H](CCC(=O)O)NC(=O)C(C)(C)NC(=O)[C@@H](N)Cc1cnc[nH]1)[C@@H](C)O)[C@@H](C)O)C(C)C)C(=O)N[C@@H](C)C(=O)N[C@@H](Cc1c[nH]c2ccccc12)C(=O)N[C@@H](CC(C)C)C(=O)N[C@H](C(=O)N[C@@H](CCCNC(=N)N)C(=O)NCC(=O)N[C@@H](CCCNC(=N)N)C(=O)NCC(=O)O)C(C)C		human, plasma	14 mg, model-estimated mean	20.5 nM
COc1cc2ncnc(Nc3ccc(F)c(Cl)c3)c2cc1NC(=O)/C=C/CN1CCCCC1		human, normal hepatic function (NCI), plasma	single dose, geometric mean, total drug	11.8 ng/mL

For quick reference, copied from above:
SMILES	test	system	conditions	Cmax
COc1ccnc(C[S+]([O-])c2nc3ccc(OC(F)F)cc3[nH]2)c1OC (stereo not drawn)		human, plasma	oral, dose not given, median	3400 ng/mL
